Assay results of several laboratories.
Each line is one published result; not all experiments were run side by side. “And” joins repeats or separate records; there may be more than shown. ± gives the spread as reported.
Histone acetyltransferase RTT109 with Vps75: Histone acetyltransferase RTT109, with Vps75 (Saccharomyces cerevisiae, UniProt Q07794)
Chain of UniProt Q07794 (whole entry, looked up): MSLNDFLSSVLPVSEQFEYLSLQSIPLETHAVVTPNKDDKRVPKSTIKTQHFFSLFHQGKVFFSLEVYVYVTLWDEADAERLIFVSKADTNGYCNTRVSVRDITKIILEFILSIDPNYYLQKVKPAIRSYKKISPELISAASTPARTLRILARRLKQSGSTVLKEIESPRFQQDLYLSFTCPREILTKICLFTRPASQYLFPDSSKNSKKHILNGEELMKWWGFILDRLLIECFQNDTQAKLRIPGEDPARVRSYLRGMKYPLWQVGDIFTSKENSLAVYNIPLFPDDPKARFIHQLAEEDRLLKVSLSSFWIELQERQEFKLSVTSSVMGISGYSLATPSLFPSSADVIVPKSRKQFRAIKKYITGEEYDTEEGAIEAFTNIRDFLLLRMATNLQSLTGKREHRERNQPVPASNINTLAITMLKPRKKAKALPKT
UCHL1: Ubiquitin carboxyl-terminal hydrolase isozyme L1 (UCHL1, Homo sapiens, UniProt P09936)
Chain of UniProt P09936 (whole entry, looked up): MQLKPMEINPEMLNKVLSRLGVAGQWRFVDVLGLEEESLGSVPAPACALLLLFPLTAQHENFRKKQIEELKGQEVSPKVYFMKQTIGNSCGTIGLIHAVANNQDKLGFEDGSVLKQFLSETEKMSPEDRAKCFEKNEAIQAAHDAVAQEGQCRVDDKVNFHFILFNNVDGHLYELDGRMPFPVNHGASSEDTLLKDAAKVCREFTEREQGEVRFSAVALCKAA

Compound | tested on | assay | system | conditions | how to read | endpoint | result
N#Cc1ccc(C[C@@H](NC(=O)c2cc3cc(F)ccc3[nH]2)C(=O)N2CCc3ccccc32)cc1 | human neutrophils | calcium mobilization, desensitization |  | together with: standard agonist |  | IC50 | > 50 µM
C[C@H](Nc1ccc2c(c1)OCCn1cc(N3C(=O)OC[C@H]3C(F)F)nc1-2)C(N)=O | NCI-H1993 (PIK3CA WT, KRAS WT) | basal AKT phosphorylation, HTRF, item: phospho-AKT |  | 4 h |  | IC50 | 0.021 ± 0.0066 µM
C[C@H](Nc1ccc2c(c1)OCCn1cc(N3C(=O)OC[C@H]3C(F)F)nc1-2)C(N)=O | MDA-MB-453 | western blot, item: phospho-S6 Ser235/Ser236 |  | 2 h |  | IC50 | > 3 µM
C=CC(=O)c1cccnc1Nc1cc(C(F)(F)F)ccc1OC | HEK293A LATS1/2 double knockout | TEAD reporter gene, GTIIC luciferase |  | 24 h |  | IC50 | 35.9 µM
COc1ccc2[nH]c3c(c2c1)CCN(C1CC(=O)N(c2ccc(Br)cc2)C1=O)C3 (stereo not shown) | Histone acetyltransferase RTT109 with Vps75 | enzyme activity, inhibitor, HTS, CPM-based, dose response |  |  |  | IC50 | > 125 µM
COc1cc(O)cc(/C=C/c2cccc(O)c2OC)c1 | T47D breast cancer | cell viability, MTT | DMEM with 10% FBS | 48 h |  | IC50 | > 200 µM
NS(=O)(=O)OC[C@@H]1C[C@@H](n2ccc3c(N[C@H]4CCc5ccccc54)ncnc32)C[C@@H]1O | CHP-212 parental | cell viability, SRB |  |  |  | IC50 | 0.454 µM and 0.462 µM and 0.512 µM
C[C@H]1Oc2cc(cnc2N)-c2c(nn(C)c2C#N)CN(C)C(=O)c2ccc(F)cc21 | Ba/F3 EML4-ALK v1 | cell viability |  |  |  | IC50 | 0.0198 µM
N#Cc1ccc(C[C@@H](NC(=O)c2cc3ccccc3[nH]2)C(=O)N2CCc3ccccc32)cc1 | human neutrophils | calcium mobilization, desensitization |  | together with: standard agonist |  | IC50 | > 50 µM
N#Cc1c(NC(=O)CCl)sc2c1CCN(Cc1ccccc1)C2 | UCHL1 | covalent, intact protein LC-MS |  | 12.5 µM |  | labelling | 22.4%
CC(C)(N)c1cc(C(=O)N[C@@H]2CCc3ccc(Oc4ccnc5c4CCC(=O)N5)cc3C2)cc(C(F)(F)F)c1 | primary keratinocytes | ERK phosphorylation, inhibitor, Western blot, item: p-ERK/total ERK |  | 1 h |  | IC50 | 4.07 µM
N#Cc1ccc(C[C@H](Nc2nnc(-c3cccc(Br)c3)o2)C(=O)N2CCc3ccccc32)cc1 | human neutrophils | calcium mobilization, desensitization |  | together with: standard agonist |  | IC50 | > 50 µM
CC(C)C(=O)Nc1ccc([N+](=O)[O-])c(C(F)(F)F)c1 | 7702 normal human cells | cell growth, CCK-8 |  | 48 h |  | IC50 | > 50 µM
O=C1CCC(N2Cc3c(C#CC4CCN(C(=O)[C@H]5CC[C@H](NC(=O)[C@H]6NC7(CCCCC7)[C@]7(C(=O)Nc8cc(Cl)ccc87)[C@H]6c6cccc(Cl)c6F)CC5)CC4)cccc3C2=O)C(=O)N1 (stereo partly shown) | RS4;11/MIR2 | cell growth, WST-8 |  | 4 days |  | IC50 | > 1 µM
C=CC(=O)c1cccnc1Nc1cccc(C(F)(F)F)c1 | HEK293A LATS1/2 double knockout | TEAD reporter gene, GTIIC luciferase |  | 24 h |  | IC50 | 127 µM
COc1cc(N2CCC(N3CCN(C)CC3)CC2)ccc1Nc1ncc(Cl)c(Nc2ccccc2P(C)(C)=O)n1 | NCI-H2228 (EML4-ALK variant 3) | cell viability |  |  |  | IC50 | 0.0125 µM
N#Cc1ccc(C[C@@H](Nc2ncc(-c3ccc(F)cc3)o2)C(=O)N2CCc3ccccc32)cc1 | human neutrophils | calcium mobilization, desensitization |  | together with: standard agonist |  | IC50 | > 50 µM
C[C@@H]1CN(C(=O)c2ccc(NC(=O)c3cc(O[C@H](C)c4c(Cl)ccc(F)c4Cl)c(N)nn3)cc2)C[C@H](C)N1 | Ba/F3 EML4-ALK variant 1 S1206Y | cell viability |  |  |  | IC50 | 0.0294 µM
CCCCN1C[C@H](O)[C@@H](O)[C@H](O)[C@H]1CO | Sandhoff fibroblasts | lysosomal accumulation, LysoTracker staining |  | 8 days |  | IC50 | 6 µM
COC(=O)C1=C(C)NC(C)=C(C(=O)OC(C)(C)CN(C)CCC(c2ccccc2)c2ccccc2)C1c1cccc([N+](=O)[O-])c1 (stereo not shown) | Toxoplasma gondii | parasite growth | HFF, bradyzoite, glutamine-induced |  |  | EC50 | 4.83 µM

Compound | tested on | assay | system | conditions | how to read | endpoint | result
CC1(C)COc2ccc(F)cc2CN2c3nc4c(cnn4cc3OC[C@H]2C(F)F)C(=O)N1 | Ba/F3 EML4-ALK variant 1 S1206Y | cell viability |  |  |  | IC50 | 0.0144 µM
CCCCN1C[C@H](O)[C@@H](O)[C@@H](O)[C@H]1CO | sample BC patient fibroblasts | Gb3 level lowering, LC-MS/MS, item: Gb3 d18:1/20:0 |  | 216 h |  | IC50 | 25.5 µM
CN(C)C(=O)c1cc2cnc(Nc3ccc(-c4ccc5c(=O)cc(N6CCOCC6)oc5c4)cc3)nc2n1C1CCCC1 | BE(2)-C | cell viability, CellTiter-Glo |  | 72 h |  | IC50 | 0.17 µM
COc1cc(C(=O)NS(=O)(=O)c2ccccc2C)ccc1Cc1cn(C)c2ccc(NC(=O)OC3CCCC3)cc12 | HCT116 wild-type cells | native VRAC current, inhibitor, whole-cell patch clamp |  | pH 7.4, at +100 mV |  | IC50 | 13.5 µM
NC(=O)NOCCCCCCCCCCCC[P+](c1ccccc1)(c1ccccc1)c1ccccc1 | mouse myeloid-derived suppressor cells | suppressive neutrophil differentiation, flow cytometry |  |  |  | IC50 | > 4 µM
O=[N+]([O-])c1cn2c(n1)O[C@@H](COc1ccc(-c3ccc(F)cc3)nc1)CC2 | Trypanosoma cruzi | reporter translation, Renilla luciferase mRNA translation | cell-free extract | 40 µM | baseline: DMSO | inhibition | -5.4%
COc1cc(-c2oc3cc(O)cc(O)c3c(=O)c2O)ccc1O | SV-HUC-1 | cell growth, CellTiter-Glo |  | 72 h |  | IC50 | > 200 µM
N#Cc1ccc(C[C@H](NC(=O)c2cc3ccc(F)cc3[nH]2)C(=O)N2CCc3ccccc32)cc1 | human neutrophils | calcium mobilization, desensitization |  | together with: standard agonist |  | IC50 | > 50 µM
O=c1c(O[C@@H]2O[C@H](CO)[C@@H](O)[C@H](O)[C@H]2O)c(-c2ccc(O)cc2)oc2cc(O)cc(O)c12 | MDA-MB-231 breast cancer | cell viability, MTT | DMEM with 10% FBS | 48 h |  | IC50 | > 200 µM
CC#CC(=O)N1CCC[C@H]1c1nc(-c2ccc(C(=O)Nc3ccccn3)cc2)c2c(N)nccn12 | human platelets, healthy donors | calcium mobilisation, inhibitor, Fura-2 fluorescence |  | together with: CRP 10 µg/mL |  | IC50 | 5.32 µM
CC(=O)O[C@H]1C(=O)[C@@]2(C)[C@H]([C@H](OC(=O)c3ccccc3)[C@]3(O)C[C@H](OC(=O)[C@H](O)[C@@H](NC(=O)c4ccccc4)c4ccccc4)C(C)=C1C3(C)C)[C@]1(OC(C)=O)CO[C@@H]1C[C@@H]2O | CHP-212 parental | cell viability, SRB |  | mean of 3 runs |  | IC50 | 0.0351 µM
Cc1cccc(-c2nnc(N[C@@H](Cc3ccc(C#N)cc3)C(=O)N3CCc4ccccc43)o2)c1 | human neutrophils | calcium mobilization, desensitization |  | together with: standard agonist |  | IC50 | > 50 µM
O=C(C1=C[C@H](C2CCCCC2)C[C@H](OCc2ccc(CO)cc2)O1)N1CCN(Cc2ccc3c(c2)OCO3)CC1 | Trypanosoma cruzi | reporter translation, Renilla luciferase mRNA translation | cell-free extract | 40 µM | baseline: DMSO | inhibition | -1.5%
Cc1nc(NC(=O)N2CCC[C@H]2C(N)=O)sc1-c1ccnc(C(C)(C)C(F)(F)F)c1 | MDA-MB-453 | western blot, item: phospho-PKB/Akt Ser473 |  | 2 h |  | IC50 | 0.0574 µM
O=C(c1c(F)ccc(NS(=O)(=O)N2CC[C@@H](F)C2)c1F)c1c[nH]c2ncc(-c3cnc(C4CC4)nc3)cc12 | primary keratinocytes | ERK phosphorylation, Western blot |  | 1 h |  | IC50 | > 30 µM
N#Cc1ccc(C[C@H](Nc2nnc(-c3cccc(F)c3)s2)C(=O)N2CCc3ccccc32)cc1 | human neutrophils | calcium mobilization, desensitization |  | together with: standard agonist |  | IC50 | > 50 µM
Cc1cc(Nc2ncc(Cl)c(Nc3ccccc3S(=O)(=O)C(C)C)n2)c(OC(C)C)cc1C1CCNCC1 | Rh36 (embryonal rhabdomyosarcoma) | cell growth |  | 3 days |  | IC50 | 0.75 ± 0.12 µM
CN(C)C(CNC(=O)CCl)c1ccccc1.Cl (stereo not shown) | UCHL1 | covalent, intact protein LC-MS |  | 12.5 µM |  | labelling | 10.7%
Cc1c(C(=O)O)ccc2c3n(nc12)[C@@H]1[C@H](C3)N(CC2CC2)[C@@]2(C(=O)Nc3cc(Cl)ccc32)[C@H]1c1cccc(Cl)c1F | MDM2-amplified TP53 wild-type cell lines | cell viability |  | range across cell lines |  | IC50 | 0.005 to 0.24 µM
Cc1cccc(Nc2nc(-c3ccccc3)no2)c1 | Histone acetyltransferase RTT109 with Vps75 | enzyme activity, inhibitor, HTS, CPM-based, dose response |  |  |  | IC50 | > 125 µM

Repeated from above:
Compound | tested on | assay | system | conditions | how to read | endpoint | result
C=CC(=O)c1cccnc1Nc1cccc(C(F)(F)F)c1 | HEK293A LATS1/2 double knockout | TEAD reporter gene, GTIIC luciferase |  | 24 h |  | IC50 | 127 µM
N#Cc1c(NC(=O)CCl)sc2c1CCN(Cc1ccccc1)C2 | UCHL1 | covalent, intact protein LC-MS |  | 12.5 µM |  | labelling | 22.4%
Cc1nc(NC(=O)N2CCC[C@H]2C(N)=O)sc1-c1ccnc(C(C)(C)C(F)(F)F)c1 | MDA-MB-453 | western blot, item: phospho-PKB/Akt Ser473 |  | 2 h |  | IC50 | 0.0574 µM
N#Cc1ccc(C[C@H](Nc2nnc(-c3cccc(F)c3)s2)C(=O)N2CCc3ccccc32)cc1 | human neutrophils | calcium mobilization, desensitization |  | together with: standard agonist |  | IC50 | > 50 µM
